Published values gathered from unrelated publications.
A part holds a random share of what one study measured.

Study 1
Target: Centromere-binding protein 1, full length, N-terminal tag (CBF1, Saccharomyces cerevisiae, UniProt P17106, residues 1-351)
Sequence of UniProt P17106 (whole entry, looked up): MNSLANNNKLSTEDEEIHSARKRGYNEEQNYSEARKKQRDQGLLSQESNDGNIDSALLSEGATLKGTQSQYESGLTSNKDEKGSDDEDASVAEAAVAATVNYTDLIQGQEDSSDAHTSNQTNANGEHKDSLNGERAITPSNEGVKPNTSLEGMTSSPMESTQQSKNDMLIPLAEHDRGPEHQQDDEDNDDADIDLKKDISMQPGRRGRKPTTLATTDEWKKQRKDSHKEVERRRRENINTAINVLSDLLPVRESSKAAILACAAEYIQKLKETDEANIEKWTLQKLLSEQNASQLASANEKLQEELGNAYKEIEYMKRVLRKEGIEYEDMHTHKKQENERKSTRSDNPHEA
Method: protein-binding microarray
Form: double-stranded DNA, one strand shown
Medium: in vitro
Tested at: 0.8 µM
Notes: whole 60-bp probe, no competitor
Reading: higher = stronger binding
All sequences stand within: … GTCTTGATTCGCTTGACGCTGCTG
Sequence | fluorescence intensity [a.u.]
CTATTGTCACAGTGTCACATCAGCGGCAACTCATTC | 614
GAATAATCATTATGTCACCTTCCTATGCCGTATTAG | 568
GAACTAAAAAGATGTTTCGTGATTCTCCTAGTATAG | 522
GAAAAAATCTTCAGTCACGTGGCGCTCCGTCTTTAG | 12500
CTAGAAACTGCCCATCAGGAGATATTTTCGCACTTC | 528
GAATTTCGTATAGTCTGTGTGACCCTATCTGTTTAG | 531
CTATTTGCATACACGTGACTTATATTTGGTGTCTTC | 19200
CTAGTTGAAATTGCTCTCGTGAGGTACATACTTTTC | 535
CTAATTATCAAACCACATGAAACTTTTTTAATCTTC | 650
CTAGCCAGAACGCTTCTGGTGGTGTAAATACGGTTC | 515
TGTACGAAGCTATATAACATCAGTATAGTAGTTAGG | 543
GAAGACCTGAGCAGGTGACTTAGGTGGAGGAGCTAG | 3770
GAATTATGAGACAGCCACGCAACACAAAAAAGGTAG | 527
GAAGTCAGGTTGATACATGTGCCTTTTATTCCATAG | 777
GAAAAGTATTAATTGCCCACCACCTTCTTAAAATAG | 509
CCTAACTACTATAGTGACGTTGGATAGCTTCGTACA | 495
CTAGAAATAAAAAATGATAACGTGTATATTATTTTC | 865
TGTACGAAGCTATATCACACTGTTATAGTAGTTAGG | 504
GAAACGGTGCGTGTCAGCGTGGTCGGCGTACGTTAG | 571
CTATTTTTTTAGCGTCACGTTAATCAGCCCAATTTC | 1450
CTAGATATAATCAGCATCATGTTTTTTAAGCGATTC | 535
CCTAACTACTATACTGGTCACGTATAGCTTCGTACA | 1320
GAAATTATGGTATCCCACGTGATTGAGTGTAACTAG | 6620

Study 2
Target: Sal-like protein 4, full length isoform B (SALL4, Homo sapiens, UniProt Q9UJQ4-2, residues 1-616)
Method: universal PBM
Form: double-stranded DNA, one strand shown
Medium: in vitro
Tested at: not given
Notes: 8-mer, flanks averaged, mean of replicates
Reading: higher = stronger binding
Residues (chain): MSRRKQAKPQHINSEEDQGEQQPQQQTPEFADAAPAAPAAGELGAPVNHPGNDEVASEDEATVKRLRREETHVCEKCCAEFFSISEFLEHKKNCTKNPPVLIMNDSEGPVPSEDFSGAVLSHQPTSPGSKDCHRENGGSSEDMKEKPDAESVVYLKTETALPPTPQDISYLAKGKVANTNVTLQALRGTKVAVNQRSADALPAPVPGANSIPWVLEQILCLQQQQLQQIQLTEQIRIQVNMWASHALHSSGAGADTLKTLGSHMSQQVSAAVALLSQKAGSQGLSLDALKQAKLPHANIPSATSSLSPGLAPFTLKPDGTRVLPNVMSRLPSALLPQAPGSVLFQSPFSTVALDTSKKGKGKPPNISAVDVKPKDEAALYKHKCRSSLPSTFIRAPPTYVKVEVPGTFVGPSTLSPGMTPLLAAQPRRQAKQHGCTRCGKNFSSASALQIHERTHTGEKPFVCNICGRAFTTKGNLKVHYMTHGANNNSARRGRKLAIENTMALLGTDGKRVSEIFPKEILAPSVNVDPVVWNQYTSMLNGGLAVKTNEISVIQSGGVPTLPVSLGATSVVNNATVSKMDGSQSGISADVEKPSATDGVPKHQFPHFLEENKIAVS
Sequence | E-score
AATACATC | 0.249
GCGAACGC | -0.137
GCCGCTTA | -0.161
AAACGACT | -0.00797
AAGAGTAG | 0.0737
TGGTTACA | 0.0606
CGAAGCAA | 0.115
CCCGGCTC | -0.391
CCCTCCGC | -0.311
CTAATGCA | 0.106
AGTCACAT | 0.159
AAGATAGG | 0.088
CAGAATCC | -0.1
AGGATTAT | 0.249
GCATGGTA | -0.0312
AATGAGTG | 0.197
TAAGACAA | 0.229
GAAAGGTA | 0.164
ATGCAAGC | 0.126
ATTCACCG | -0.0139
CCTTTAGC | -0.071
GAGCCTGA | -0.222
CGCAGATA | 0.00834
AGCGCTCG | -0.284
AAATCCAT | 0.243

Study 3
Target: Histone acetyltransferase KAT6A, winged helix 2, GST fusion (KAT6A, Homo sapiens, UniProt Q92794, residues 85-181)
Method: protein binding microarray
Form: double-stranded DNA, one strand shown
Medium: in vitro
Tested at: not given
Notes: 8-mer, flanks averaged, mean of 2 arrays, mostly near background
Relative to: not given
Reading: higher = stronger binding
Residues (chain): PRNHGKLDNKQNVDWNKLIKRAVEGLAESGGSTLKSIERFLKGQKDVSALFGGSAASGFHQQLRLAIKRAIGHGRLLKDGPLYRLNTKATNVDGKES
Sequence | E-score
AGGTATCG | 0.128
ATCTAATG | -0.0268
CAATTCCC | 0.103
GCCCAGCA | 0.133
AGAGAAGG | 0.0105
ATTCGCTG | 0.00877
CATCATCC | -0.107
CTGGTAAA | -0.127
TCCGCCAA | 0.104
CCCGCGCC | 0.239
CTTAGGAA | 0.0304
GGAATTTA | 0.0696
ACGTGGAT | -0.195
TCGAGCGA | 0.00161
AAGCCCTA | -0.0946
CTTTCATC | -0.0476

Study 4
Target: Interferon regulatory factor 7, full length, phosphomimetic (IRF7, Homo sapiens, UniProt Q92985, residues 1-503, S471D/S472D/S475D/S476D/S477D/S483D/S484D/S487D)
Method: protein-binding microarray
Form: double-stranded DNA, one strand shown
Medium: in vitro
Tested at: 2200 nM top
Notes: 60-bp whole probe
Added: salmon DNA 0.4 mg/ml
Relative to: random background probes
Reading: higher = stronger binding
All sequences stand within: GCCTAGCAC … GTCTTGATTCGCTTGACGCTGCTG
Construct (chain): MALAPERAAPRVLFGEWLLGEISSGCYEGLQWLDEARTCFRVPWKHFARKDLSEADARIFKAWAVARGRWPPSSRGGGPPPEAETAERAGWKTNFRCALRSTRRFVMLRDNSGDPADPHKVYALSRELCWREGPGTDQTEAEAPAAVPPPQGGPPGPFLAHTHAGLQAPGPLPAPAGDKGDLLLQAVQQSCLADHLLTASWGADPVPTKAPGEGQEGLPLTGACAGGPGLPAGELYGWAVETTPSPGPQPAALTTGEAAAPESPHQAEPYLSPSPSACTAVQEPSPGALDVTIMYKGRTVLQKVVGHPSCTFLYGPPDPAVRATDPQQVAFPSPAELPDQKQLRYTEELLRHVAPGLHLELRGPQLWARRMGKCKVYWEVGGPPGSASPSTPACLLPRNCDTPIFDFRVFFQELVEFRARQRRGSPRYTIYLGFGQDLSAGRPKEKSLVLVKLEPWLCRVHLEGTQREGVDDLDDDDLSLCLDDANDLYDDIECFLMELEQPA
Sequence | fitted relative affinity [z-score]
GATGGTCTCGGTTTCGGGACGTGCTAG | 4.21
TTAGATCTCTGTTTCGATTAGTGCTAG | 3.71
CTGTTTTTCTCACCACATTTTGTGCTA | 2.68
TTAGGTTTCCTTTTCCTTTTGTGCTAG | 8.26
GACGTTTTCGGACTGGGGACGTGCTAG | 3.18
GACGATATCCTTATCCTGACGTGCTAG | 1.09
GACGGTATCGTGTTTCGGGACGTGCTA | 1.77
CTAGGTTTCGGGACTGGGTTAGTGCTA | 3.14
TTAGACCTCAGACTGGATTAGTGCTAG | -0.346
TTAGAACTGGGCTTTCGATTAGTGCTA | 1.68
TTAGGACTGCTACTGATTTAGTGCTAG | -0.175
TTAGACCTGAGTTTCGATTAGTGCTAG | 4.09
TTAGAATTGAGTCTCGATTAGTGCTAG | -0.376
GACGGTATCGACTTTCGCGACGTGCTA | 1.52
GACGGTTTCCTACTGCTGCCGTGCTAG | 1.89
CCTAGTTTTACTTTCTATCTGTGCTAG | 5.89
TCACCATTATATTTTAAACTGTGCTAG | 0.914
TCACATACTAGTTTCCAACTGTGCTAG | 2.19
TCAGATCTCAGTCTCGATTAGTGCTAG | 0.704
GACGGTTTCCATTCCCTGACGTGCTAG | 5.18
TTAGGTATCCTTCTCCTCTAGTGCTAG | 1.16
TACGGACTGGGTCTCGGGACGTGCTAG | -0.68
TTAGTACTGGGGACTGGATTAGTGCTA | -0.124
TTAGGACTGCTTCTCCTTAAGTGCTAG | 0.506
TTAGGTTTCGACTTTCCGTTAGTGCTA | 7.77

Study 5
Target: Prothrombin, mature alpha-thrombin (F2, Homo sapiens, UniProt P00734)
Method: aptamer microarray, sandwich
Form: DNA with 2'F-ANA
Medium: in vitro
Tested at: 200 nM
Notes: whole 15-mer aptamer, many near background
Added: Cy3 exosite-II aptamer, 400 nM
Reading: higher = stronger binding
Sequence: GGTTGGTGTGGTTGG
Modification | mean fluorescence intensity [a.u.]
2'F-ANA at 1 2 3 5 6 7 11 12 13 14 15 | 70.2
2'F-ANA at 4 5 7 8 9 13 15 | 53
2'F-ANA at 3 4 5 6 8 10 11 14 15 | 61.5
2'F-ANA at 2 3 4 11 14 15 | 247
2'F-ANA at 2 3 4 7 8 11 12 13 14 | 393
2'F-ANA at 1 3 5 6 11 12 | 90.4
2'F-ANA at 1 2 3 8 10 12 15 | 162
2'F-ANA at 3 4 8 9 14 15 | 286
2'F-ANA at 1 2 3 7 8 11 12 13 14 15 | 106
2'F-ANA at 1 2 4 7 9 11 12 14 | 59.8
2'F-ANA at 3 5 6 11 13 14 | 59.7
2'F-ANA at 2 4 6 7 10 11 12 13 14 | 62.4
2'F-ANA at 1 6 7 10 11 14 | 44.1
2'F-ANA at 2 5 6 7 12 13 14 15 | 88.2
2'F-ANA at 1 3 6 7 8 9 11 13 | 242
2'F-ANA at 3 4 5 6 7 8 9 13 15 | 58.4
2'F-ANA at 1 4 8 9 10 12 14 15 | 65
2'F-ANA at 1 3 4 5 6 9 13 14 | 45.9
2'F-ANA at 1 2 3 4 6 7 10 11 12 13 14 15 | 80.9
2'F-ANA at 2 3 6 7 8 10 11 14 15 | 234
2'F-ANA at 1 2 3 6 9 11 13 | 147
2'F-ANA at 1 2 5 6 7 13 | 49.6
2'F-ANA at 2 3 7 8 10 11 14 15 | 250
2'F-ANA at 2 4 5 7 13 15 | 54.5
2'F-ANA at 3 4 6 7 8 9 10 11 12 13 14 | 162

Repeated from above (study 4):
Sequence | fitted relative affinity [z-score]
GACGATATCCTTATCCTGACGTGCTAG | 1.09
GACGGTATCGTGTTTCGGGACGTGCTA | 1.77
CTAGGTTTCGGGACTGGGTTAGTGCTA | 3.14
TTAGACCTCAGACTGGATTAGTGCTAG | -0.346
TTAGAACTGGGCTTTCGATTAGTGCTA | 1.68
TTAGGACTGCTACTGATTTAGTGCTAG | -0.175
TTAGACCTGAGTTTCGATTAGTGCTAG | 4.09
TTAGAATTGAGTCTCGATTAGTGCTAG | -0.376
GACGGTATCGACTTTCGCGACGTGCTA | 1.52
GACGGTTTCCTACTGCTGCCGTGCTAG | 1.89
CCTAGTTTTACTTTCTATCTGTGCTAG | 5.89
TCACCATTATATTTTAAACTGTGCTAG | 0.914
TCACATACTAGTTTCCAACTGTGCTAG | 2.19
TCAGATCTCAGTCTCGATTAGTGCTAG | 0.704
GACGGTTTCCATTCCCTGACGTGCTAG | 5.18
TTAGGTATCCTTCTCCTCTAGTGCTAG | 1.16
